Measurements collected from several papers.
Each numbered part is a random draw from the data of one study; scales do not carry over between parts.

Study 1
Target: Interferon regulatory factor 5, full length, phosphomimetic (IRF5, Homo sapiens, UniProt Q13568-2, residues 1-514, S451D/S453D/S456D/S462D)
Method: protein-binding microarray
Form: double-stranded DNA, one strand shown
Medium: in vitro
Concentration: 940 nM top
Notes: 60-bp whole probe
With: salmon DNA 0.4 mg/ml
Reference: random background probes
Reading: higher = stronger binding
All sequences stand within: GCCTAGCAC … GTCTTGATTCGCTTGACGCTGCTG
Sequence	fitted relative affinity [z-score]
GACGATTTCGGGACTGGCGACGTGCTA	0.0963
GACGGACTGGACACTGGGGTCGTGCTA	-0.61
TCAGTTTTGAGTTTTCCACTGTGCTAG	0.559
TTAGCACTGAGTATCGATTAGTGCTAG	4.1
TTAGATCTCAGTATCGAGTAGTGCTAG	1.69
GACGGACTGGGGTATCGGGCCGTGCTA	0.125
TTAGTTTTCGGTTTCGGTTAGTGCTAG	11.4
GACGGTTTCGGTCACGGGACGTGCTAG	12.8
TCAAAGATCATTCTCACACTGTGCTAG	0.456
GACGGACTGGACGTTCGGGACGTGCTA	-0.815
TTAGAGCTGAGACTGGATTAGTGCTAG	-0.236
TTAGATATCAGACAGGATTAGTGCTAG	-0.293
GACGCACTGAGACTGGAGACGTGCTAG	-0.457
TCAACTCTGTCCCTCTGACTGTGCTAG	0.44
TTAGGTTTCCTACTGCTTGAGTGCTAG	0.63
GACGGTCTCCTTATCCCGACGTGCTAG	0.809
GACGGACTGGACGCTGGGGACGTGCTA	-0.69
GACGGTTTCGGTTCCTGGACGTGCTAG	12.7
TTAGGTATCTTTATCCTTTAGTGCTAG	0.813
CACACTTTCCCCTTCCTAGTGTGCTAG	1.62
GACGTTATCAGTCTCGAGACGTGCTAG	1.28
TCAGCTCCAGGTTCTCTGACTGTGCTA	-0.122

Study 2
Target: RNA binding protein fox-1 homolog 2, RRM domain, GST-SBP tag (RBFOX2, Homo sapiens, UniProt O43251-10, residues 100-194)
Method: RNA Bind-n-Seq
Form: RNA
Medium: in vitro
Concentration: 365 nM
Notes: natural RNA segment, single round, ends assumed
Reference: no-protein control
Reading: higher = stronger binding
Residues (chain): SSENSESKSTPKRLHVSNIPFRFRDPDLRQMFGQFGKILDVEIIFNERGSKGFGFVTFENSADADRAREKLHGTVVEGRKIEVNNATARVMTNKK
Sequence	RBNS enrichment (R)
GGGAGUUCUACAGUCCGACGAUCUCGGGUAUGCAUGUCCGGUAGGCAUAGCUGUCACAAAGCGGGUGUACUUAUGGUGAAAGAGGACAUUUUUUUUUUCUUCAGGAUAGUUGAAAGGGCAGGCCCAACGGCUGUGGAAUUCUCGGGUGCCAA	2.36
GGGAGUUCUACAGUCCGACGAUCUUUUCAUCCUGUAUCACAGUGUUUUUAUUGCUCGCCCAGACACCAUGUGCAAUAAGACUGGUGUUCGUUUCCAUCAUGUCUGUAUACUUCUGUCAUCUAGACUGUGCAUCUGGAAUUCUCGGGUGCCAA	1.45
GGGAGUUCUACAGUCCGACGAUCACAGGCGUUUCUGACCUGCUGGGCCGAGAAUGGGUAAGUUGUCUGGAGUCAGGUGGGCCCACGUAGGACAGGGUCACAAAGCCUGGGUUUGUUUCUGGGUACUUUGCGCCUGGAAUUCUCGGGUGCCAA	1.05
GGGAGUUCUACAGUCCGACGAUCUUUUCCAAAAUGAAUUGGGAAAAAAAAAUCGUAUAGCAGUCUUAAAGCUUAGUAAUGGAACUUGGCUGUGGCCCAGAGCUUUCUCCUUAUAGAGAAUUUGAUCUGCUCCGUGGAAUUCUCGGGUGCCAA	0.398
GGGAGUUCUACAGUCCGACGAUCUCUCCCUUUGUCCCCACUGCAUGUUGACACAAGUAUGGAAGUGGAGCCUGGUUAGAACUUGUUUCUAGUGCUAAUGCUCUGACCUAGUAUUUCCAUUGGAGAUCACUGUCUGGAAUUCUCGGGUGCCAA	13.6
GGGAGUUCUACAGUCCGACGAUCGUGCAGUUUAAGGUUCAGGCAUGCAUUCUGGCUCAUAGUGGUUGAAAGUAAUUUAAAUUAGUGGGAAAGUAGCAUGCUUGCAUCACAUAGAGUGAGAUUGGUAUUCAUUUUGGAAUUCUCGGGUGCCAA	0.653
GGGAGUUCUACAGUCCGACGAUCUCCCUCCAACGUGGUCCUCUUCCUGGCUGGAGGUGCUGGAUUCUGACUGCCAUCUUGCUCCAUGGUGGCUCUUCUGGCCUGGGACCCGGUCCACAGGAAGGGCUAGGAGCUGGAAUUCUCGGGUGCCAA	0.318
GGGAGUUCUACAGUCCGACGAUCAUGGAGAGGAACAUGAGGAACAAUGAAUUCCAACAUAUGGCUUUAGAACAUCAGGAUGUUCUUGUAUUGGAUAUAGUAUCUAGUAUUCAAAAAUGCCUGCAUCUCUUAUUUGGAAUUCUCGGGUGCCAA	1.46
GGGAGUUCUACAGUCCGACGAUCCUUAUUACCAAACUCUCAACUCAUACGCAGCUUCAAUUUCCGAAAUGGCUUCAAAUAGGGAGGGUAAGAACAUGGAGGAGGGGGGUGCCAGGAAAUGAUACCCAGAACUAUGGAAUUCUCGGGUGCCAA	0.297
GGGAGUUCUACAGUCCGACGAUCUUCUUUUGAAUGUUUUGAACCCAACUACUUGUCAUAGAUGUUUGACUGUGUCAAAAGCUGUGAGCAGCAAAAUAUAAUCCAUAUGACCUUUUCUCUUGCACUUCACUUGUUGGAAUUCUCGGGUGCCAA	1.77
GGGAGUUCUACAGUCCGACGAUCGUUAGGUGAUGGAGCCCAUUCAAGGAGCAUUUGGUGUUGGGUCAGGGUUGCCAAUAGAACACUGUGUCCCAGCUGCCCCCAACUUGCCAGAAGAACCAGCACUUACUUCUUGGAAUUCUCGGGUGCCAA	0.549
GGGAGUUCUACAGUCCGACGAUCUAAAAUGAAUAGGUUUGUGUUUAUAGCCUAUAAUAACUCUAGUUGAAUCAUGUACACAGCAGGAGUGGUCACAGUAAAAACUGGUAGCAGGAAAAUUUGAAAGGGUUUGAUGGAAUUCUCGGGUGCCAA	0.777

Study 3
Target: Ras GTPase-activating protein-binding protein 1, RRM domain (G3BP1, Homo sapiens, UniProt Q13283)
Sequence of UniProt Q13283 (whole entry, looked up): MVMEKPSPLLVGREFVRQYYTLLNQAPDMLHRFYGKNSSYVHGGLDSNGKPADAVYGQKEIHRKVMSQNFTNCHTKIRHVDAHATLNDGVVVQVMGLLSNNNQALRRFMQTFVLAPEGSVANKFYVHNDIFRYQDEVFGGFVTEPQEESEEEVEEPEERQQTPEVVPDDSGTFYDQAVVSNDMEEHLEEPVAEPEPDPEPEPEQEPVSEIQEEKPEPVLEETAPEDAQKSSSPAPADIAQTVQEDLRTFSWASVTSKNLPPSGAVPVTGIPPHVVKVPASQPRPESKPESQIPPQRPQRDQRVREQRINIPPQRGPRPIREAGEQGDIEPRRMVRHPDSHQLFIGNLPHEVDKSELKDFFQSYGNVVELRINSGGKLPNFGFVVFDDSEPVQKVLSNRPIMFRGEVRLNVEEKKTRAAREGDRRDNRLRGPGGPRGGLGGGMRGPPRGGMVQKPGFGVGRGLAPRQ
Method: RNA Bind-n-Seq
Form: RNA
Medium: in vitro
Concentration: 1 µM
Notes: whole 134-nt RNA, ends assumed
With: 150 mM KCl
Reference: input library
Reading: higher = stronger binding
Sequence	log2 enrichment
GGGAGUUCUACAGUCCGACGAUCCACAGACAACACGCACCCACACAGACACAGAGGGAAGGGGUUGGGAUGGGGACAGGGUGCACAGCAGGGCGAAAUAGGACCCCAGCCCCUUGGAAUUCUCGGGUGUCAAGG	-0.0332
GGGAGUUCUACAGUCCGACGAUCUAACUUUAGAGGAGGAUCUGAUGGAUAUGGCAGUGGACCUGGAUUUGGGGAUGGCUAUAAUGGGUAUGGAGGAGGACCUGGAGGUGGCAAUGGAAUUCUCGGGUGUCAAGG	-0.641
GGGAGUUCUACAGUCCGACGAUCAGUCCUGUGCUACACAUCGUAUGUACCGAAUCGGGGUUUGGGGAAAGGGGUUUGGGGAAAGUAUUAUGUUACGCCGUUCGGAUCUGCACUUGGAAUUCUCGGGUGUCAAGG	1.28
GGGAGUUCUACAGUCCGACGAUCUAACUUUAGAGGAGGAUCUGAUGGAUAUGGCAGUGGACGUGGAUUUGGGGAUGGCUAUAAUGGGUAUUGAGGAGGACCUGGAGGUGGCAAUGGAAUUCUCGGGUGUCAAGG	-0.425
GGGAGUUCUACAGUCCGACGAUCUGGCCCUGGUGGCAUGCGGGGACGAAGAGGUGGCCUCAUGGAUCGUGGUGGUCCCGGUGGAAUGUUCAGAGGUGGCCGUGGUGGAGACAGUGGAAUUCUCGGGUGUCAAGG	1.07
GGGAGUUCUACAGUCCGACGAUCUAACUUUAGAGGAGGAUCUGAUGGAGAUGGCAGUGGACGUGGAUUUGGGGAUGGCUAUAAUGGGUAUGGAGGAGGACCUGGAGGUGGCAAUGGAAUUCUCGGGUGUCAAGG	-0.408
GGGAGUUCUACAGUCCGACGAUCAAGUCCUGUGCUACACAUCGUAUGUACCGAAUCGGCCCCGGGCCCCGGGGCCCCGGGAAAGUAUUAUGUUACGCCGUUCGGAUCUGCACUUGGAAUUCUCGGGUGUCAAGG	-0.659
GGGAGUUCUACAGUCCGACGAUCCAAGUCCUGUGCUACACAUCGUAUGUACCGAAUCGGGGAAAGGGGAGGGGAGGGGAAAGUAUUAUGUUACGCCGUUCGGAUCUGCACUUCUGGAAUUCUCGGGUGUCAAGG	1.18
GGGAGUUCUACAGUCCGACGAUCCUCAAGUCCUGUGCUACACAUCGUAUGUACCGAAUCGGGUUGGGUUGGGUUGGAAAGUAUUAUGUUACGCCGUUCGGAUCUGCACUUCCAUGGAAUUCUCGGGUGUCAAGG	-0.182
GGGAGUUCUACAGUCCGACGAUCUGCAGUCGAGCCAGCACCUGUUUCUGGACCUGCCUAAGGUAAGUGAGCUUUUCUCUCAACCUAGUUUUCAGGAGGCCUCUUCUGUCCCCUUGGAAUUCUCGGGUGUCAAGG	-0.113
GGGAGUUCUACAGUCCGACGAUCUGGGAGGUGGAUUUUGUUUAUUUUAUUAGCUCAUUUCCAGGGGUGGGAAUUUUUUUUUAAUAUGUGUCAUGAAUAAAGUUGUUUUUGAAAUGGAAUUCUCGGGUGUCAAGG	1.81
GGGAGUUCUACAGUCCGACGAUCAAGUCCUGUGCUACACAUCGUAUGUACCGAAUCGGGAAAAGGAAAAGGGGAAAAGGAAAGUAUUAUGUUACGCCGUUCGGAUCUGCACUUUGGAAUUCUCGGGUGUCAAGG	-0.112
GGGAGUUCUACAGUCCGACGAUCUCCUCAAGUCCUGUGCUACACAUCGUAUGUACCGAAUCGGAAAGGAGGUGGAAAGUAUUAUGUUACGCCGUUCGGAUCUGCACUUCCAGCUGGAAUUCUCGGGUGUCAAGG	-0.22
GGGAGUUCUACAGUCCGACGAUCCUGUGCUACACAUCGUAUGUACCGAAUCGGGCCCCCCCGGGGCCCCCCCGGCCCCCCCGGGAAAGUAUUAUGUUACGCCGUUCGGAUCUGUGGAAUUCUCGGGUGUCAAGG	-0.533

Study 4
Target: Histone acetyltransferase KAT6A, winged helix 1, GST fusion (KAT6A, Homo sapiens, UniProt Q92794, residues 1-85)
Method: protein binding microarray
Form: double-stranded DNA, one strand shown
Medium: in vitro
Concentration: not given
Notes: 8-mer, flanks averaged, mean of 2 arrays, mostly near background
Reference: not given
Reading: higher = stronger binding
Construct (chain): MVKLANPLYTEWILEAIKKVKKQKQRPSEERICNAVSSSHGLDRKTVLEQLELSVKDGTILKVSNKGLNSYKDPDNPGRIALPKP
Sequence	E-score
ACTAGACC	-0.123
CCAGTGCC	-0.0948
AGAACTGC	-0.095
GTTGCGGA	0.0086
AAGATAAT	-0.0345
AAAGTCAT	-0.281
CCGCGTTA	0.356
GGACTCAA	-0.105
CCTTCACC	0.104
AATGGAGG	-0.0202
AGTAGATG	-0.108
CCCGATGC	0.235
CACTAGCA	-0.107
ATCCCTGC	-0.0738
GTGAGAAC	-0.144
ACTAGCCC	0.0356
CACTCAGA	-0.0532

Repeated from above (study 3):
Sequence	log2 enrichment
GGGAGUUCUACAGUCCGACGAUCAGUCCUGUGCUACACAUCGUAUGUACCGAAUCGGGGUUUGGGGAAAGGGGUUUGGGGAAAGUAUUAUGUUACGCCGUUCGGAUCUGCACUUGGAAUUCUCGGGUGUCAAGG	1.28
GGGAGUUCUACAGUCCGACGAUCUAACUUUAGAGGAGGAUCUGAUGGAUAUGGCAGUGGACGUGGAUUUGGGGAUGGCUAUAAUGGGUAUUGAGGAGGACCUGGAGGUGGCAAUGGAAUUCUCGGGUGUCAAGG	-0.425
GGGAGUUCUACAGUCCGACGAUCUGGCCCUGGUGGCAUGCGGGGACGAAGAGGUGGCCUCAUGGAUCGUGGUGGUCCCGGUGGAAUGUUCAGAGGUGGCCGUGGUGGAGACAGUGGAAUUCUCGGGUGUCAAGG	1.07
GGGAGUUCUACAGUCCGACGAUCUAACUUUAGAGGAGGAUCUGAUGGAGAUGGCAGUGGACGUGGAUUUGGGGAUGGCUAUAAUGGGUAUGGAGGAGGACCUGGAGGUGGCAAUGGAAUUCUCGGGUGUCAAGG	-0.408
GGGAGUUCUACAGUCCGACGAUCAAGUCCUGUGCUACACAUCGUAUGUACCGAAUCGGCCCCGGGCCCCGGGGCCCCGGGAAAGUAUUAUGUUACGCCGUUCGGAUCUGCACUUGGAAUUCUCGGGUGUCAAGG	-0.659
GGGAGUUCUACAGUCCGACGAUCCAAGUCCUGUGCUACACAUCGUAUGUACCGAAUCGGGGAAAGGGGAGGGGAGGGGAAAGUAUUAUGUUACGCCGUUCGGAUCUGCACUUCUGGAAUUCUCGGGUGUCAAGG	1.18
